Published values gathered from unrelated publications.
A part holds a random share of what one study measured.
Chain of UniProt Q01844 (340-470, looked up): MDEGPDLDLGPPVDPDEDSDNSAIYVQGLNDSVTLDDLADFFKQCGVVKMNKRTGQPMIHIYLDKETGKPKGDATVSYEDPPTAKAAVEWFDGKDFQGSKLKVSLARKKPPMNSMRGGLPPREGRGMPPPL
Chain of UniProt P07333 (whole entry, looked up): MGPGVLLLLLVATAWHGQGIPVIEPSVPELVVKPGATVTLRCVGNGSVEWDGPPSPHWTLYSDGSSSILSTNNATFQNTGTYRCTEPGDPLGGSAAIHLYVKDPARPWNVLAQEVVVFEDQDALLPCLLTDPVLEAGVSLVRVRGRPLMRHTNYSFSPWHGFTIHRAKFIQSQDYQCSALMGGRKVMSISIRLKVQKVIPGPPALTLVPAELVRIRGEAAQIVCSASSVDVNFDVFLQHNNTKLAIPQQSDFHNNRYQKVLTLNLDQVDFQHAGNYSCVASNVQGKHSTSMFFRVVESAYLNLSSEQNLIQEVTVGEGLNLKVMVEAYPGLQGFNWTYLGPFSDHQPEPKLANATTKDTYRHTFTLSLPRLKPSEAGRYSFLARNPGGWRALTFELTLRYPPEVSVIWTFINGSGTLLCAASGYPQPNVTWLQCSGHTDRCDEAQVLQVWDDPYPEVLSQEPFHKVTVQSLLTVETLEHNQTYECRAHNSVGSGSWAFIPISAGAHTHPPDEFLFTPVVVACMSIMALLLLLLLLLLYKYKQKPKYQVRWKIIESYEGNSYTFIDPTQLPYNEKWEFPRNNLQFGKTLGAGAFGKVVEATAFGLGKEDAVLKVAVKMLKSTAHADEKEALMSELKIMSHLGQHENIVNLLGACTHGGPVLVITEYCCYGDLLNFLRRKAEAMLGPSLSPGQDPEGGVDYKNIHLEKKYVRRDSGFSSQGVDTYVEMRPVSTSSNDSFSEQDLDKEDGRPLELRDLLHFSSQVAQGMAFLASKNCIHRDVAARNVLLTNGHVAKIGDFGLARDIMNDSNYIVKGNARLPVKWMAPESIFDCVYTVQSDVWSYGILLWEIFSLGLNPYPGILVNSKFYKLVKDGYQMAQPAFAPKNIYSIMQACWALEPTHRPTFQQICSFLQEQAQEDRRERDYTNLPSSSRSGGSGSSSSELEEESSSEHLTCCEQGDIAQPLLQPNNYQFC

Study 1 — method: RNA Bind-n-Seq; molecule type: RNA; medium: in vitro; tested at: 1 µM; notes: whole 134-nt RNA, ends assumed; with: 150 mM KCl; baseline: input library; direction: higher = stronger binding; quantity: log2 enrichment
Target: Ras GTPase-activating protein-binding protein 1, RRM domain (G3BP1, Homo sapiens, UniProt Q13283)
Chain of UniProt Q13283 (whole entry, looked up): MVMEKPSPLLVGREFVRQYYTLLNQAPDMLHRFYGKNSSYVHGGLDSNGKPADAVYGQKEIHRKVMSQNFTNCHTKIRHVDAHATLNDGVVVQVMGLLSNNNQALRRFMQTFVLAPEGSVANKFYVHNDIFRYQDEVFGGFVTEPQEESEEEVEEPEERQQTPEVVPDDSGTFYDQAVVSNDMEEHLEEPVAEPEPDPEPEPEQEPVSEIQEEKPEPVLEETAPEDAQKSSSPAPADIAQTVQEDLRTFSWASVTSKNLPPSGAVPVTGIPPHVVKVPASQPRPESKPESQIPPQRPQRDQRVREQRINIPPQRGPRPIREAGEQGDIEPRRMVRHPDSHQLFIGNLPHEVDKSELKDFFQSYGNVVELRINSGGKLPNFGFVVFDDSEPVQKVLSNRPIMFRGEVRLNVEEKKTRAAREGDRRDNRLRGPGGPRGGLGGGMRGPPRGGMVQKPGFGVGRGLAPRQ
All sequences stand within: GGGAGUUCUACAGUCCGACGAUC … UGGAAUUCUCGGGUGUCAAGG
AAGUCCUGUGCUACACAUCGUAUGUACCGAAUCGGGGCCCCGGGCCCCGGGCCCCGGAAAGUAUUAUGUUACGCCGUUCGGAUCUGCACU: -1.03
CUGUGCUACACAUCGUAUGUACCGAAUCGGGGUUUUUUUGGGGAAAAAAAGGGGUUUGGGGAAAGUAUUAUGUUACGCCGUUCGGAUCUG: 0.336
CUCAAGUCCUGUGCUACACAUCGUAUGUACCGAAUCGGGGAAGGAAGGGAAGGAAAGUAUUAUGUUACGCCGUUCGGAUCUGCACUUCCA: -0.276
GUCCUGUGCUACACAUCGUAUGUACCGAAUCAAAUUUUUAAAUUUUUAAACCCCCAAAAAAGUAUUAUGUUACGCCGUUCGGAUCUGCAC: -1.46
UGUGCUACACAUCGUAUGUACCGAAUCGGGAAAAAAAGGGGAAAAAAAGGGGAAAAAAAGGGGAAAGUAUUAUGUUACGCCGUUCGGAUC: 0.227
GUCCUGUGCUACACAUCGUAUGUACCGAAUCGGGGAAAAAGGGGUUUGGGGAAAGGGGAAAGUAUUAUGUUACGCCGUUCGGAUCUGCAC: 1.61
UCCUCAAGUCCUGUGCUACACAUCGUAUGUACCGAAUCGGGGCGGCGGCGGAAAGUAUUAUGUUACGCCGUUCGGAUCUGCACUUCCAGC: -0.168
CCUCAAGUCCUGUGCUACACAUCGUAUGUACCGAAUCGGGGCGGCGGGCGGGGAAAGUAUUAUGUUACGCCGUUCGGAUCUGCACUUCCA: 0.0608

Study 2 — method: protein-binding microarray; molecule type: double-stranded DNA, one strand shown; medium: in vitro; tested at: 250 nM; notes: 60-bp whole probe; with: salmon DNA 0.4 mg/ml; baseline: random background probes; direction: higher = stronger binding; quantity: log fluorescence; all sequences stand within: GCCTAGCAC … GTCTTGATTCGCTTGACGCTGCTG
Target: Interferon regulatory factor 5, full length, phosphomimetic (IRF5, Homo sapiens, UniProt Q13568-2, residues 1-514, K96S/S451D/S453D/S456D/S462D)
TTAGGACTGCTGCTCCTTTAGTGCTAG: -0.684 z-score
GACGGTTCCGGTGTCGGGACGTGCTAG: 0.363 z-score
TTAGGAATGGGGTTTCGGTTAGTGCTA: 7.31 z-score
TTTGGTTTCGGGTATCGGTTAGTGCTA: 9.92 z-score
GACGGACTGAGACTGGGGACGTGCTAG: -0.651 z-score
TTAGGCATCGACTATCGGTTAGTGCTA: 6.45 z-score
GACGGTCTCCTTATCCTCACGTGCTAG: 0.0677 z-score
TCAGCTTCCCAATTCTCACTGTGCTAG: 0.552 z-score

Single results of other studies
AAAAAAAA (biotin)  signal ratio (RNA-binding protein EWS, RRM domain (EWSR1, Homo sapiens, UniProt Q01844, residues 340-470); protein domain microarray; RNA, in vitro; not given, poly(A) 8-mer RNA, whole probe, immobilized GST-fusion domains, most near background; baseline: GST loading signal, higher = stronger binding): 0.0483
CC(C)n1cnc2c(Nc3cccc(Cl)c3)nc(NCCO)nc21  remaining activity (CSF1R (Homo sapiens, UniProt P07333); enzyme activity, inhibitor; 0.5 µM; baseline: control): 94.8%

Excerpt of the above (study 2):
TTAGGCATCGACTATCGGTTAGTGCTA: 6.45 z-score
